Published values collected from several papers.
Protocols differ between the studies behind these lines. Values joined by “and” are separate records of one study, mostly repeats; a detail may differ. Numbers after ± are the reported error.

| Structure (SMILES) | test | system | setting | scale | quantity | value |
| --- | --- | --- | --- | --- | --- | --- |
| O=C(O)CCCCCCCCCCCCCCC(=O)O | – | human, plasma | endogenous control diurnal | relative to: daily mean concentration | relative peak deviation | 91.9 ± 16.1% |
| C[C@@H](Nc1cc(F)cc(F)c1)c1cc(C(=O)N(C)C)cc2c(=O)cc(N3CCOCC3)oc12 | CTCAE v4, refers to: maculopapular rash | patients with advanced solid tumours | oral, dose not given, phase I dose expansion | – | patients discontinuing for AE | 0% |
| OC[C@H]1O[C@@H](c2ccc(F)c(Cc3cc4ccccc4s3)c2)[C@H](O)[C@@H](O)[C@@H]1O | – | Japanese patients, type 1 diabetes | oral, 100 mg/day, onset day 5 | relative to: patients | hypoglycaemia-related adverse event | 2% |
| O=C(CCCCCCC(=O)Nc1ccc(CC[18F])cc1)NO | – | athymic nu/nu male mice, LNCaP xenograft, bone | intravenous, 2 h | – | tissue uptake | 13.4 ± 0.6 %ID/g |
| O=C(Cc1ccc2ccccc2c1)Nc1cc(C2CCC2)[nH]n1 | – | extracted mouse plasma | 0.5 ng/mL, 24 h, 4 °C, autosampler stability | – | measured mean concentration | 0.494 ± 0.02 ng/mL |
| CCn1ncc2c1-c1cnc(N)c(c1)O[C@H](C)c1cc(F)ccc1-c1nn(C)nc1C2 | – | female BALB/c nude mice, PDX | oral, 5 mg/kg once daily for 1 days, 1 h | – | unbound plasma concentration | 510 ± 54 nM |
| Oc1ccc(/C=C/c2cc(O)cc(O)c2)cc1 | – | rat, azoxymethane-injected, blood at sacrifice | 100 mg/kg | – | glycated albumin | 1.9% and 1.8% and 1.7% |
| O=C(N[C@H](Cc1c[nH]c2ccccc12)C(=O)Nc1ccncc1)c1ccc(-c2ccc(F)c(C(F)(F)F)c2)cc1F | – | Swiss Webster mouse, female, plasma | oral, 50 mg/kg, 2 h, 20% HPβCD vehicle | – | concentration | 1390 nM |
| CN[C@@H](C)C(=O)N[C@H]1CN(S(=O)(=O)c2cccc(S(=O)(=O)N3CC[C@H]4CC[C@@H](C(=O)NC(c5ccccc5)c5ccccc5)N4C(=O)[C@@H](NC(=O)[C@H](C)NC)C3)c2)CC[C@H]2CC[C@@H](C(=O)NC(c3ccccc3)c3ccccc3)N2C1=O | LC-MS/MS | human, advanced solid tumours, plasma | intravenous, 4 mg weekly, day 15 | – | AUC(0-t) | 102 ± 36.9 ng·h/mL |
| C[C@@H]1[C@H](O)[C@@H](C)/C=C/C=C/C=C/C=C/C=C/C=C/C=C/[C@H](O[C@@H]2O[C@H](C)[C@@H](O)[C@H](N)[C@@H]2O)C[C@@H]2O[C@](O)(C[C@@H](O)C[C@@H](O)[C@H](O)CC[C@@H](O)C[C@@H](O)CC(=O)O[C@H]1C)C[C@H](O)[C@H]2C(=O)O | – | human blood | 500 µg/mL, 12 h, DMSO solvent | – | hemolysis | 13.8% and 13.4% and 14.6% |
| CN(CC#N)C(=O)C[C@H](Nc1nc2ccccc2[nH]1)c1cccc(C(F)(F)F)c1 | – | human | intravenous infusion, 6 mg/kg, 1 mg/mL formulation | – | apparent clearance | 16.2 ± 2.72 L/h |
| CS(=O)(=O)c1ccc([C@@H](O)[C@@H](CF)NC(=O)C(Cl)Cl)cc1 | – | Arbor Acres chickens, plasma | oral, 20 mg/kg, added: saline pretreatment | – | terminal half-life | 2.14 ± 0.47 h |
| Cc1nc(-c2ccc(OCC(C)C)c(C#N)c2)sc1C(=O)O | – | KM mouse, chronic hyperuricaemia model | dose not given, day 6 | – | body weight | 32.5 g and 30.7 g and 31.6 g and 26.9 g and 28.3 g |
| CNC(=O)c1ccc(-c2cnc3ncc(Cc4ccc5ncccc5c4)n3n2)cc1F | – | Japanese patients | oral, 400 mg, grade 3/4 | – | blood creatinine increased dose reduction/interruption | 0% |
| CN(C(=O)n1cnc(-c2cccnc2)c1)[C@H]1CC[C@H](O)CC1 | – | Wistar rat, midbrain | oral, 10 mg/kg/day of BIA 10-2474, 4 h, repeated 5 days | – | concentration | 42.7 ± 7.4 ng/g |
| COc1ncc(-c2nc3c(n2C(C)C)[C@H](c2ccc(Cl)cc2)N(c2cc(Cl)cn(C)c2=O)C3=O)c(OC)n1 | – | human patients, plasma | oral, 25 mg, high-dose arm, cycle 1 day 1 | – | median half-life | 31.1 h |
| COc1ccc2[nH]c([S+]([O-])Cc3ncc(C)c(OC)c3C)nc2c1 (stereo not shown) | – | healthy Chinese volunteers, CYP2C19 rapid metabolizers | oral, 20 mg, fasted | – | t1/2 | 0.49 h |
| CNCCOC12CC3(C)CC(C)(CC(Cn4ncc(-c5ccc(N6CCc7cccc(C(=O)Nc8nc9ccccc9s8)c7C6)nc5C(=O)O)c4C)(C3)C1)C2 | – | beagle dog, male, anaesthetised | intravenous bolus, 0.03 mg/kg, 135 min | relative to: baseline | mean arterial pressure change | -8% |
| CCc1cc(C(=O)NC)c2nccc(N3CCc4c(cc(Cn5ccnc5)cc4-c4cn(C)nc4C(F)(F)F)C3=O)c2c1 | – | Sprague Dawley rat | oral, 100 mg/kg twice daily, 7 days | relative to: vehicle | spleen weight change | -22.4% |
| COc1ccc2c(=O)n(C)c(-c3ccccc3)nc2c1 | – | Sprague-Dawley rat, male, bladder | oral, 30 mg/kg, 4 h | – | tissue concentration | 24.7 ng/mL |
| CO[C@@H]1[C@H](O)[C@@H](CO)O[C@H]1n1c([N+](=O)[O-])nc2c(=O)[nH]c(N)nc21 | depurination, RP-HPLC | citrate-phosphate buffer 0.5 mM | 32 min, pH 2, 37 °C | – | nucleoside remaining fraction | 0.977 |
| CC(C)(C(=O)N1CCOc2c(C#N)cncc2C1)C(F)F | refers to: blood creatine phosphokinase increased | healthy humans, both sexes | oral, 10 mg single dose | – | subjects with TEAE | 0% |

| Structure (SMILES) | test | system | setting | scale | quantity | value |
| --- | --- | --- | --- | --- | --- | --- |
| CCN1/C(=C/C(C)=O)Sc2ccc(F)cc21 | – | cynomolgus monkey | oral, 100 mg/kg, 4 h post-dose | – | QT interval | 262 ± 36 ms |
| C[C@@H]1CCO[C@H]2Cn3cc(C(=O)NCc4ccc(F)cc4F)c(=O)c(O)c3C(=O)N12 | population PK, post-hoc | infants aged ≥1 months, 3 to <6 kg, plasma | oral, 4.8 mg granules, steady state, geometric mean | – | AUC(0-24) | 34200 ng·h/mL |
| Cc1cccc(CNC(=O)c2cn(CCNC(=O)c3ccccc3Sc3c([N+](=O)[O-])ncn3C)c3cc4c(cc3c2=O)OCO4)n1 | – | Beagle dog, whole blood | 1 µM, 2 h | – | remaining compound | 67.6% |
| CN1C(=O)[C@@H](NC(=O)c2nnc(Cc3ccccc3)[nH]2)COc2cccnc21 | phase I multiple ascending dose | human, male and female | oral, 50 mg, 14 days | – | participants with any serious TEAE | 0% |
| N#Cc1ccc2c(c1)[C@H]1CCCN(C(=O)c3ccc4[nH]cnc4c3)[C@H]1C2 | – | human, male | 360 mg, day 7 | – | DHEA-S level | 4.7 µmol/L |
| CNCc1ccc(-c2[nH]c3cc(F)cc4c3c2CCNC4=O)cc1 | – | human patients | oral, 240 mg twice daily, all grades | – | diarrhoea incidence | 33.3% |
| COc1cc(/C=C/C(=O)CC(=O)/C=C/c2ccc(O)c(OC)c2)ccc1O | – | red blood cells | concentration not given | relative to: Triton X-100 | hemolysis | 0.53% |
| Cc1nn(C)cc1S(=O)(=O)NC(=O)c1ccc(-n2ccc(OCC(C)(C)C(F)(F)F)n2)nc1N1C[C@@H](C)CC1(C)C | – | human, plasma | standard ETI dose | – | elimination half-life | 27.7 h |
| CC(C)Oc1c(NC(=O)c2ccc(NC(=O)[C@H](CC(N)=O)NC(=O)c3ccc(/N=N/c4ccccc4)cc3)cc2)ccc(C(=O)N/N=C/c2ccc(C(=O)O)s2)c1O | absorbance | DMSO | 30 °C, PSS to ground state relaxation | – | thermal half-life | 22.4 h |
| C[C@H](CCC(=O)NCCS(=O)(=O)O)[C@H]1CC[C@H]2[C@@H]3CC[C@@H]4C[C@H](O)CC[C@]4(C)[C@H]3C[C@H](O)[C@]12C | – | human, plasma | endogenous control diurnal | relative to: daily mean concentration | relative peak deviation | 213 ± 21% |
| CC(C)=CC[C@@H](O)C1=CC(=O)c2c(O)ccc(O)c2C1=O | – | plasma | 0.5 ng/mL, 4 h, room temperature, stability | – | measured concentration | 0.49 ± 0.02 ng/mL |
| O=C1CC[C@H](N2Cc3cc(N4CCN(CC5CCN(c6ccc([C@@H]7c8ccc(O)cc8CC[C@@H]7c7ccccc7)cc6)CC5)CC4)ccc3C2=O)C(=O)N1 | – | human whole blood | 2.5 µM, 60 min | – | blood to plasma ratio | 0.67 |
| Cl.[2H]C([2H])([2H])CC(=O)c1cnc(NC(=O)C2CC2)cc1Nc1cccc(-c2ncn(C([2H])([2H])[2H])n2)c1OC | geometric mean | human | oral, 20 mg once daily, day 1, fasted, liquid, multiple dose | – | Vz/F | 149 L |
| O=C(c1cccnc1-c1ccncc1)N1CCC(O)(Cc2ccccc2)CC1 | – | healthy Japanese adults, plasma | oral, 600 mg single dose | – | terminal half-life | 8.7 h |
| Cc1nc(-c2cnc(NC(C)C)n(C)c2=O)ccc1Oc1ccnc(-c2cnn(C)c2)c1 | – | Beagle dog, male, plasma | oral, 10 mg/kg, crossover study, mean | – | AUC(0-inf) | 22000 ng·h/mL |
| O=C(Nc1nc2cccc(-c3ccc(CN4CCS(=O)(=O)CC4)cc3)n2n1)C1CC1 | refers to: injection site haematoma | human rheumatoid arthritis patients | oral, 300 mg once daily, 4 weeks, regardless of relatedness | – | treatment-emergent adverse events | 0% |
| Cc1cc(-c2nnc(N)nc2-c2ccc(F)cc2)cc(Cl)n1 | refers to: Vomiting | other solid tumours, post-IO | oral, 100 mg once daily, all grades | – | patients with treatment-related AE | 33.3% |
| N#C[C@@]1(c2ccc3c(N)ncnn23)O[C@H](CO)[C@@H](O)[C@H]1O | – | rat plasma | 1 to 100 µM, mean over concentrations | – | unbound fraction | 0.941 |
| O=C(O)CCCOc1ccc(F)cc1-c1cc(-c2ccccc2C(F)(F)F)n(-c2ccccc2)n1 | – | Crl:CD(SD) rat, female, serum | iv, 25 µg/kg, 1 day | – | chloride | 107 ± 1.3 mEq/L |
| C[C@@H](NC(=O)N1C(=O)[C@H](Cc2ccnc(N)c2)[C@H]1C(=O)O)C1CCCCC1 | UPLC-MS/MS | healthy adult Chinese volunteers, plasma | continuous intravenous infusion, 0.6 mg/kg/h, day 6 of 5-day infusion, mean | – | elimination rate constant | 0.000173 s⁻¹ |
| NC(CO)(CO)CCc1ccc(Sc2cccc(OCc3ccccc3)c2)cc1Cl | – | human, supine | oral, 3 mg, 0 to 24 h, added: cyclosporin 100 mg | – | pulse rate AUEC, median | 1340 h×bpm |
